Measured values collected from several papers.
Each numbered part is a random draw from the data of one study; scales do not carry over between parts. Substitutions count along the parent as printed.

Block 1
Target: Ras GTPase-activating protein-binding protein 1, full length (G3BP1, Homo sapiens, UniProt Q13283)
Chain of UniProt Q13283 (whole entry, looked up): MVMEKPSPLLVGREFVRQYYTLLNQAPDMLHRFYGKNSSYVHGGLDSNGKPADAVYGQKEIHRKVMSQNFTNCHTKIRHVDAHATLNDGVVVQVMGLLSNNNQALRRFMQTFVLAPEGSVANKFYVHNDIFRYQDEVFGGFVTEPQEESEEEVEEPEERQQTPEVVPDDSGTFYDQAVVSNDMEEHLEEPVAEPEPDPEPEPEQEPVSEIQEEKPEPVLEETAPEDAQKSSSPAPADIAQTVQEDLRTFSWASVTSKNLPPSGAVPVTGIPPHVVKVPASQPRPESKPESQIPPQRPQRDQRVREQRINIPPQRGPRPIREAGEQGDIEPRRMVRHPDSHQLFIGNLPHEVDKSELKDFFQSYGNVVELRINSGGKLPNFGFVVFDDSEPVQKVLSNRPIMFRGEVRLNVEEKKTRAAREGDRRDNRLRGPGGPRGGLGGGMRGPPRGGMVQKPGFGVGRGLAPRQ
Method: RNA Bind-n-Seq
Form: RNA
Medium: in vitro
Tested at: 200 nM
Setting: whole 134-nt RNA, ends assumed
Together with: 150 mM KCl
Relative to: input library
Reading: higher = stronger binding
All sequences stand within: GGGAGUUCUACAGUCCGACGAUC … UGGAAUUCUCGGGUGUCAAGG
| Strand | log2 enrichment |
| --- | --- |
| GUCCUGUGCUACACAUCGUAUGUACCGAAUCGGGGAAAAAAAGGGGUGGGGUUUGGGGAAAGUAUUAUGUUACGCCGUUCGGAUCUGCAC | 0.19 |
| CACAGACAACACGCACCCACACAGACACAGAGGGAAGGGGUUGGGAUGGGGACAGGGUGCACAGCAGAAAGGGGUAGGACCCCAGCCCCU | 1.86 |
| CCUCAAGUCCUGUGCUACACAUCGUAUGUACCGAAUCGGGGAAGGAAGGAAGGAAAGUAUUAUGUUACGCCGUUCGGAUCUGCACUUCCA | -0.211 |
| UCAAGUCCUGUGCUACACAUCGUAUGUACCGAAUCGGCCGGGGCCGGGGCCGGGGAAAGUAUUAUGUUACGCCGUUCGGAUCUGCACUUC | -1.03 |
| CCUGUGCUACACAUCGUAUGUACCGAAUCGGGGUUUUUUUGGGGAAAAAAAGGGGAGGGGAAAGUAUUAUGUUACGCCGUUCGGAUCUGC | 0.142 |
| CUGUGCUACACAUCGUAUGUACCGAAUCGGGGAAAAAAAGGGGAAAGGGGAAAAAAAGGGGAAAGUAUUAUGUUACGCCGUUCGGAUCUG | -0.208 |
| AAGUCCUGUGCUACACAUCGUAUGUACCGAAUCGUGUGUGUGUGUGUGUGUGUGUGAAAGUAUUAUGUUACGCCGUUCGGAUCUGCACUU | 0.537 |
| UGUUGGAGGGACGAUGGUCCGCUCCGGGCAGGACCCUUACGCCCGCAACAAGUUCAACCAGGUGGAGAGUGAUAAGCUUCGAAUGGACAG | -1.68 |

Block 2
Target: OGT, full length, His-tagged (human)
Method: phage display, sequencing
Medium: in vitro
Tested at: 1 µg OGT
Setting: single substitutions, 15-mer displayed peptide, unchanged parent 16.7
Relative to: input library
Reading: higher = stronger binding
Parent: peptide; NSEYMPQYQIIFAHQ
| Change | fold enrichment [fold] |
| --- | --- |
| NSLYMPQYQIIFAHQ [E3L] | 22.1 |
| NSEYTPQYQIIFAHQ [M5T] | 8.89 |
| NSEYMPQYQDIFAHQ [I10D] | 0.526 |
| NSEYMPQYQIIQAHQ [F12Q] | 0.261 |
| NEEYMPQYQIIFAHQ [S2E] | 17.1 |
| NSESMPQYQIIFAHQ [Y4S] | 0.827 |
| NSEIMPQYQIIFAHQ [Y4I] | 2.19 |
| NSEYMPQYQIIFAHT [Q15T] | 17.4 |

Other studies, line by line
P1: PafA, mature enzyme, eGFP fusion (Elizabethkingia meningoseptica, UniProt Q9KJX5); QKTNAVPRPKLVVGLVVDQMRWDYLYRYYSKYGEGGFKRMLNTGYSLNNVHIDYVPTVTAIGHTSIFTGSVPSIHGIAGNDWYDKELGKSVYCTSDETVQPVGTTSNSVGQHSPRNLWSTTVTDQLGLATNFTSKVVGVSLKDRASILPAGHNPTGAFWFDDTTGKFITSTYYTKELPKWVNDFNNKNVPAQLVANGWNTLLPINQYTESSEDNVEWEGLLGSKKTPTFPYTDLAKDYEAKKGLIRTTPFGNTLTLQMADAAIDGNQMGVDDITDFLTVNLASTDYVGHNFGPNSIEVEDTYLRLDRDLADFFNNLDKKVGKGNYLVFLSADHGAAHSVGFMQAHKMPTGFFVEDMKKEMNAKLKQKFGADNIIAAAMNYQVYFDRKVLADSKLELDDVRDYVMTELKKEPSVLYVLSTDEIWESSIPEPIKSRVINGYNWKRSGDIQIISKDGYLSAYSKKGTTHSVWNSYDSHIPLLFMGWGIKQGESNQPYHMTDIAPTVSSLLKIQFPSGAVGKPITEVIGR
| Molecule | tested on | assay | system | conditions | how to read | quantity | value |
| --- | --- | --- | --- | --- | --- | --- | --- |
| CLIP1 (Homo sapiens, UniProt P30622) | MDH2 (Homo sapiens, UniProt P40926) | cross-linking MS | cell fractions | together with: DHSO | – | cross-linked residues | E1122 to D221 |
| P1 F132G | vanadate, free oxyanion | microfluidic competitive inhibition | in vitro, cell-free expressed | not given, derived from inhibition constants, unchanged parent 676 nM | lower = stronger binding | oxyanion analog dissociation constant | 582 nM |
| UFL1 (Homo sapiens, UniProt O94874) | CDK5RAP3 (Homo sapiens, UniProt Q96JB5) | cross-linking MS | – | hits only | – | interaction screen | cross-linked |
| SYNCRIP (Homo sapiens, UniProt O60506) | HNRNPC (Homo sapiens, UniProt P07910) | cross-linking MS | cell fractions | together with: DSSO | – | cross-linked residues | K356 to K176 |
| TPR (Homo sapiens, UniProt P12270) | NUP153 (Homo sapiens, UniProt P49790) | cross-linking MS | – | hits only | – | interaction screen | cross-linked |

For quick reference, copied from above (block 2):
| Change | fold enrichment [fold] |
| --- | --- |
| NSEYTPQYQIIFAHQ [M5T] | 8.89 |
| NSEYMPQYQDIFAHQ [I10D] | 0.526 |
| NSEYMPQYQIIQAHQ [F12Q] | 0.261 |
